Published values of several laboratories.
Each line is one published result; not all experiments were run side by side. Values joined by “and” are separate records of one study, mostly repeats; a detail may differ. Numbers after ± are the reported error.
CDC48A: CDC48A 1-463 (Arabidopsis thaliana, UniProt P54609)
UniProt P54609, sequence (whole entry, looked up): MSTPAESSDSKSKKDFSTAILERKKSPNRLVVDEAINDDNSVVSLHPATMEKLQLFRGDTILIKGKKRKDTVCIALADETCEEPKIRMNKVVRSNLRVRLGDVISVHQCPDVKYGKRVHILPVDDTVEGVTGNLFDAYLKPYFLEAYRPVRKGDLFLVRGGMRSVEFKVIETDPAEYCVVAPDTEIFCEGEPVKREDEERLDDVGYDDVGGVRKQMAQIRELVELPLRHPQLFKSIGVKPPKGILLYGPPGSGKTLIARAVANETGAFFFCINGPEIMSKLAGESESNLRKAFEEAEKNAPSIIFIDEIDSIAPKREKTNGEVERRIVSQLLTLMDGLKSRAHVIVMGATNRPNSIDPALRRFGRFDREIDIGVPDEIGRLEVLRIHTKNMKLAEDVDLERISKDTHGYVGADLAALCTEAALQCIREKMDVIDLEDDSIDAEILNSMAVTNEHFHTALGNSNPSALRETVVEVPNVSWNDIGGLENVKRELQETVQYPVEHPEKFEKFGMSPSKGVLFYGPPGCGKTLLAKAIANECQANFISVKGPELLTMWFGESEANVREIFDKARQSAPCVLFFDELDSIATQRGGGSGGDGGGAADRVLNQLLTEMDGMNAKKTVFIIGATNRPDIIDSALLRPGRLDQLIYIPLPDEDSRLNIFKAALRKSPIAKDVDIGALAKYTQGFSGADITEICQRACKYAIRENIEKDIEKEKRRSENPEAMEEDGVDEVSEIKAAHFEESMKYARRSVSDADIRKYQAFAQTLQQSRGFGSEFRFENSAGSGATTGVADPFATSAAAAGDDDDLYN
CALM1: CALM1 (Homo sapiens, UniProt P0DP23)
T1: ATRX ADD domain 167-289 K251R/F284Y (Homo sapiens); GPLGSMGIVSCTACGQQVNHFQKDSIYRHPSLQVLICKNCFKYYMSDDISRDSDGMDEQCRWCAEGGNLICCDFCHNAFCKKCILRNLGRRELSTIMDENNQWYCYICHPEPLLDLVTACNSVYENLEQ
B1: PUX5 301-421 (Arabidopsis thaliana, UniProt Q7Y175); chain KNPFQGVGRTLGASGSGSSSAPQASSAPMNVAPAPSRGLVVDPAAPTTSIQLRLADGTRLVSRFNNHHTVRDVRGFIDASRPGGSKEYQLLTMGFPPKQLTELDQTIEQAGIANAVVIQKF
B2: CFH domains 1108-1231 L1189F (Homo sapiens, UniProt P08603); sequence looked up; chain KCGPPPPIDNGDITSFPLSVYAPASSVEYQCQNLYQLEGNKRITCRNGQWSEPPKCLHPCVISREIMENYNIALRWTAKQKFYSRTGESVEFVCKRGYRLSSRSHTLRTTCWDGKLEYPTCAKR
B3: PPARG AF-1 1-136 (Homo sapiens, UniProt P37231-1); pT75, pS112; chain MGETLGDSPIDPESDSFTDTLSANISQEMTMVDTEMPFWPTNFGISSVDLSVMEDHSHSFDIKPFTTVDFSSISTPHYEDIPFTRTDPVVADYKYDLKLQEYQSAIKVEPASPPYYSEKTQLYNKPHEEPSNSLMA
B4: SIL1 20-421 (Saccharomyces cerevisiae, UniProt Q08199); chain TILHSSIHSVPSGGEIISAEDLKELEISGNSICVDNRCYPKIFEPRHDWQPILPGQELPGGLDIRINMDTGLKEAKLNDEKNVGDNGSHELIVSSEDMKASPGDYEFSSDFKEMRNIIDSNPTLSSQDIARLEDSFDRIMEFAHDYKHGYKIITHEFALLANLSLNENLPLTLRELSTRVITSCLRNNPPVVEFINESFPNFKSKIMAALSNLNDSNHRSSNILIKRYLSILNELPVTSEDLPIYSTVVLQNVYERNNKDKQLQIKVLELISKILKADMYENDDTNLILFKRNAENWSSNLQEWANEFQEMVQNKSIDELHTRTFFDTLYNLKKIFKSDITINKGFLNWLAQQCKARQSNLDNGLQERDTEQDSFDKKLIDSRHLIFGNPMAHRIKNFRDEL
B5: C1S 438-688 S632A (Homo sapiens, UniProt P09871); chain IIGGSDADIKNFPWQVFFDNPWAGGALINEYWVLTAAHVVEGNREPTMYVGSTSVQTSRLAKSKMLTPEHVFIHPGWKLLEVPEGRTNFDNDIALVRLKDPVKMGPTVSPICLPGTSSDYNLMDGDLGLISGWGRTEKRDRAVRLKAARLPVAPLRKCKEVKVEKPTADAEAYVFTPNMICAGGEKGMDSCKGDAGGAFAVQDPNDKTKFYAAGLVSWGPQCGTYGLYTRVKNYVDWIMKTMQENSTPRED
B6: DUSP1 3-148 (Homo sapiens, UniProt P28562); sequence looked up; chain MEVGTLDAGGLRALLGERAAQCLLLDCRSFFAFNAGHIAGSVNVRFSTIVRRRAKGAMGLEHIVPNAELRGRLLAGAYHAVVLLDERSAALDGAKRDGTLALAAGALCREARAAQVFFLKGGYEAFSASCPELCSKQSTPMGLSLP
B7: NRP1 (Arabidopsis thaliana); chain MVADKSKKSKIEEKGEEENLEQIDAELVLSIEKLQEIQDDLEKINEKASDEVLEVEQKYNVIRKPVYDKRNEVIQSIPGFWMTAFLSHPALGDLLTEEDQKIFKYLNSLEVEDAKDVKSGYSITFHFTSNPFFEDAKLTKTFTFLEEGTTKITATPIKWKEGKGLPNGVNHDDKKGNKRALPEESFFTWFTDAQHKEDAGDEIHDEVADIIKEDLWSNPLTYFNNDADEEDFDGDDDGDEEGEEDDDDEEEEDGEE
B8: BRAF kinase 448-723 K723G/P722S/S720E/L716E/S713E/Q709R/L706S/A688R/Y673S/N661D/K630S/V600E/L588N/Q562R (Homo sapiens, UniProt P15056); sequence looked up; chain DDWEIPDGQITVGQRIGSGSFGTVYKGKWHGDVAVKMLNVTAPTPQQLQAFKNEVGVLRKTRHVNILLFMGYSTKPQLAIVTQWCEGSSLYHHLHASETKFEMKKLIDIARQTARGMDYLHAKSIIHRDLKSNNIFLHEDNTVKIGDFGLATEKSRWSGSHQFEQLSGSILWMAPEVIRMQDSNPYSFQSDVYAFGIVLYELMTGQLPYSNINDRDQIIFMVGRGSLSPDLSKVRSNCPKRMKRLMAECLKKKRDERPSFPRILAEIEELARELSG
B9: Cacna1c 1647-1777 (Mus musculus, UniProt Q01815); sequence looked up; chain NALSLQAGLRTLHDIGPEIRRAISGDLTAEEELDKAMKEAVSAASEDDIFRRAGGLFGNHVTYYQSDSRGNFPQTFATQRPLHINKTGNNQADTESPSHEKLVDSTFTPSSYSSTGSNANINNANNTALGR
B10: CFH 1108-1231 (Homo sapiens, UniProt P08603); sequence looked up; chain KCGPPPPIDNGDITSFPLSVYAPASSVEYQCQNLYQLEGNKRITCRNGQWSEPPKCLHPCVISREIMENYNIALRWTAKQKLYSRTGESVEFVCKRGYRLSSRSHTLRTTCWDGKLEYPTCAKR
B11: PUX7 322-468 (Arabidopsis thaliana, UniProt Q94JZ8); chain EDVAKDEEEEELQRALAASLEDNNMKESSDDQSTIIPEEVAVEAVTSAVLPTFPPLPEEPKGGDRSLQCRVGIRLPNGQRLQRNFLKTDTIQLLWSFCYSQLEESERKKPLKLTQAIPGESKTLEYESNLTLEQSGVANSMISATWE
B12: PLXNC1 1198-1305 T1264V/R1265V (Homo sapiens, UniProt O60486); chain TVALNVVFEKIPENESADVCRNISVNVLDCDTIGQAKEKIFQAFLSKNGSPYGLQLNEIGLELQMGVVQKELLDIDSSSVILEDGITKLNTIGHYEISNGSTIKVFKK
B13: IGSF10 1941-2229 (Homo sapiens, UniProt Q6WRI0); sequence looked up; chain PRIEAASQKRTEVNFGDKLLLNCSATGEPKPQIMWRLPSKAVVDQQHRVGSWIHVYPNGSLFIGSVTEKDSGVYLCVARNKMGDDLILMHVSLRLKPAKIDHKQYFRKQVLHGKDFQVDCKASGSPVPEISWSLPDGTMINNAMQADDSGHRTRRYTLFNNGTLYFNKVGVAEEGDYTCYAQNTLGKDEMKVHLTVITAAPRIRQSNKTNKRIKAGDTAVLDCEVTGDPKPKIFWLLPSNDMISFSIDRYTFHANGSLTINKVKLLDSGEYVCVARNPSGDDTKMYKLD
B14: IgG L:G68W; V domains shown; VH QVQLVQSGAEVKKPGASVKVSCKASGYTFTNYGLSWVRQAPGQGLEWMGWISANNGDTNYGQEFQGRVTMTTDTSTSTAYMELRSLRSDDTAVYYCARDSSSSWARWFFDLWGRGTLVTVSS; VL SYVLTQPPSVSVAPGKTARITCGGNIIGSKLVHWYQQKPGQAPVLVIYDDGDRPSGIPERFSGSNSWNTATLTISRVEAGDEADYYCQVWDTGSDPVVFGGGTKLTVL
UniProt P26039, sequence (whole entry, looked up): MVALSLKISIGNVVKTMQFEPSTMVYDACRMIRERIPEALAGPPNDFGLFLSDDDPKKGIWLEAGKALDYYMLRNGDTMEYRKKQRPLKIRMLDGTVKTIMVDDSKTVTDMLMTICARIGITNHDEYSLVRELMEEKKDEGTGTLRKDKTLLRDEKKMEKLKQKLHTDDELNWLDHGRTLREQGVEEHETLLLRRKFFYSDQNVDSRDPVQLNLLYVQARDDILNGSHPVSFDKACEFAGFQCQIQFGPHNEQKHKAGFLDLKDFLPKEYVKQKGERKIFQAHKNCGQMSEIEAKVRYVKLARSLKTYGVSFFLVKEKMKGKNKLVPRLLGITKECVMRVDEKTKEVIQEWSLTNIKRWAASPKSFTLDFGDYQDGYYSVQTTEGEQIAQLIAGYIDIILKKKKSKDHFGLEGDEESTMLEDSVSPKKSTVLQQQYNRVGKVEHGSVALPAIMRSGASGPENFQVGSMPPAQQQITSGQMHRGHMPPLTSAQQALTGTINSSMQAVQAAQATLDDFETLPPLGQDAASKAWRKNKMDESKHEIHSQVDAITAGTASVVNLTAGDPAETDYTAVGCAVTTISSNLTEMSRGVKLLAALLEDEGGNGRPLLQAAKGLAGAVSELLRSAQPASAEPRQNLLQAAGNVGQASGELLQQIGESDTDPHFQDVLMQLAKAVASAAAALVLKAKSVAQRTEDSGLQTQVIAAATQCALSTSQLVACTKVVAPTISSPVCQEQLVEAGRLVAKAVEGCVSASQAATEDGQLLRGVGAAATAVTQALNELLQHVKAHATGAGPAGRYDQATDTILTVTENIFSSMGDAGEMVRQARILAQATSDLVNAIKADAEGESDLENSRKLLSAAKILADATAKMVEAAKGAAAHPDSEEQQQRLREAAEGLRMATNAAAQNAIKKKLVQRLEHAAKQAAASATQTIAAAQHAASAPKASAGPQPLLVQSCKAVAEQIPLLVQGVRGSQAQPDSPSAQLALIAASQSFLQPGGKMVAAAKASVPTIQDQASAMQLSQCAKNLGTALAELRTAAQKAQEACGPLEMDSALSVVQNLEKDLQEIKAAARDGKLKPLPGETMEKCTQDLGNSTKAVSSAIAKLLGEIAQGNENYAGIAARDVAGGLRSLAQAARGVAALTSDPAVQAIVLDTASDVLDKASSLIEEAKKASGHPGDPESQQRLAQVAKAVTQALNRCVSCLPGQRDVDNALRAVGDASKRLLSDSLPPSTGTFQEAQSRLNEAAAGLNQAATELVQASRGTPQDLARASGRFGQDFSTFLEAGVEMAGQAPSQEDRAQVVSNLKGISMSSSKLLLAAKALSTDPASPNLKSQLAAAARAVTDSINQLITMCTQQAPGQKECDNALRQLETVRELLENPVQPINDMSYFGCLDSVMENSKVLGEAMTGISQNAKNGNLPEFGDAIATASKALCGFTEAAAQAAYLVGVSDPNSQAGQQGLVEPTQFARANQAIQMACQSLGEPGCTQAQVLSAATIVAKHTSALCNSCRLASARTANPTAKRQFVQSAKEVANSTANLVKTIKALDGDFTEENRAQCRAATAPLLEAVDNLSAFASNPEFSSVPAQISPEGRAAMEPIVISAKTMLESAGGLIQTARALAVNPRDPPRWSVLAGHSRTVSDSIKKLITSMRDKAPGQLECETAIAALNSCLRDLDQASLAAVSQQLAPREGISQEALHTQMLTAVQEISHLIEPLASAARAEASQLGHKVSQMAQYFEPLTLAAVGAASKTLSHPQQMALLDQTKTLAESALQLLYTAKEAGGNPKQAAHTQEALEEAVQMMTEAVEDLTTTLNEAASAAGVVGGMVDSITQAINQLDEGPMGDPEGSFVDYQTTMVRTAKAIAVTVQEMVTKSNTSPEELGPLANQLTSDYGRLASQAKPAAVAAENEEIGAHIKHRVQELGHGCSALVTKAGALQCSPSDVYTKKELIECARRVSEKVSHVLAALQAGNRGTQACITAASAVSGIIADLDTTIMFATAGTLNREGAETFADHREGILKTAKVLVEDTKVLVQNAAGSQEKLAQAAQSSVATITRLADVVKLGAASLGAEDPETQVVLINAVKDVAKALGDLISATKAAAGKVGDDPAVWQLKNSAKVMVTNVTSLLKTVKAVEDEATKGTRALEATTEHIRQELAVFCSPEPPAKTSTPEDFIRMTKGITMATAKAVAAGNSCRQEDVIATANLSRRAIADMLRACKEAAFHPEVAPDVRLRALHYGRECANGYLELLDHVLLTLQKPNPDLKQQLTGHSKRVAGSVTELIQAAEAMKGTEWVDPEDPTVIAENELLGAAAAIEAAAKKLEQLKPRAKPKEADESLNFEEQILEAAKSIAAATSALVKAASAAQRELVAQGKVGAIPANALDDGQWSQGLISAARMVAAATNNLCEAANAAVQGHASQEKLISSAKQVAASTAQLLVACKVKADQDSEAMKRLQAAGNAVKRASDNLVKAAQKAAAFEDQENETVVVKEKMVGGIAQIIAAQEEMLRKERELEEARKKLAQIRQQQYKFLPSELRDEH
UniProt P01024, sequence (whole entry, looked up): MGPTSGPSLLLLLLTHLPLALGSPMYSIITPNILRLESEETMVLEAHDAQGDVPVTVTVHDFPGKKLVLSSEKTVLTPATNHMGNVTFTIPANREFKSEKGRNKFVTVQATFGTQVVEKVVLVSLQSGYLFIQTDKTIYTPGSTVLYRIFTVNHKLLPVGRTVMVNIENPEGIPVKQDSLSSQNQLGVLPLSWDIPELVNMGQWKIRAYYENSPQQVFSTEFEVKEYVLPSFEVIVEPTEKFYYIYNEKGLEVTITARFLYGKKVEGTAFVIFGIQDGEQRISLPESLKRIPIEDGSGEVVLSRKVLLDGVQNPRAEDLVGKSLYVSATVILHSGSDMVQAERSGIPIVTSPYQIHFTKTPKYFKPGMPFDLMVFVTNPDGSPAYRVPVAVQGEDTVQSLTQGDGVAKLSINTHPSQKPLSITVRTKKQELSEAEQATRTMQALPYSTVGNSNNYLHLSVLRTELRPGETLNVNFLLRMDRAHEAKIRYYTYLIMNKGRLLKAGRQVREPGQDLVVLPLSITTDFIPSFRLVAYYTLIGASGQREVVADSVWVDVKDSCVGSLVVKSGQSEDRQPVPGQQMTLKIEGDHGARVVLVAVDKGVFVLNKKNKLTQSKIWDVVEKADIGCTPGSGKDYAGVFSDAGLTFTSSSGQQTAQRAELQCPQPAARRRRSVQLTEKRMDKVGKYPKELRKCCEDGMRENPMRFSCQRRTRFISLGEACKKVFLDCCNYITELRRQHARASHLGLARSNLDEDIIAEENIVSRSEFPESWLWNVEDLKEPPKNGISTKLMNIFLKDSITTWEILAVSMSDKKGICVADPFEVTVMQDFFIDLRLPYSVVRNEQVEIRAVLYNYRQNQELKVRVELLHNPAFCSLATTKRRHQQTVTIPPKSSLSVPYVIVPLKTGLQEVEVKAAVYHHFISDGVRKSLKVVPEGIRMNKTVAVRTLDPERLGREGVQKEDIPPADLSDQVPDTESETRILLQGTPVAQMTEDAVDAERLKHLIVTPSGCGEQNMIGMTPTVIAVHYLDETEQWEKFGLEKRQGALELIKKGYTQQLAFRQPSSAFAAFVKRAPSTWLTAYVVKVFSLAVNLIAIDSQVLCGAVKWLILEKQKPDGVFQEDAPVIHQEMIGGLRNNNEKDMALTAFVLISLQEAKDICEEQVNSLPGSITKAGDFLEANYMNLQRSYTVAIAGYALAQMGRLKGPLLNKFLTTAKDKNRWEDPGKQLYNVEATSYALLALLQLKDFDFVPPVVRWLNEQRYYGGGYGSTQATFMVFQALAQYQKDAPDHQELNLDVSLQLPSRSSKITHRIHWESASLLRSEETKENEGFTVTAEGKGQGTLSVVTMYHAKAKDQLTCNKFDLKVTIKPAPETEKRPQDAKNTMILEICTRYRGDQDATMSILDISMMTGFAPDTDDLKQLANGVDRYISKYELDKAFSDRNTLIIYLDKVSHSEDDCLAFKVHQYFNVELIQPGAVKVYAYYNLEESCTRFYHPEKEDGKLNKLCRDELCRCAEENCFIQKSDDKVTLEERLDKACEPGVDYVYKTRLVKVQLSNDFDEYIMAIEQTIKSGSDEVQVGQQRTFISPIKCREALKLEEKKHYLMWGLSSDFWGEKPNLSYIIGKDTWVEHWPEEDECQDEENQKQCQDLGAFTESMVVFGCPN

CALLLSAPRR (GOT2 (Gallus gallus); fluorescein label)  Kd (HSPA9 mature A475W/V482F (Homo sapiens, UniProt P38646); FP; peptide): > 150 µM
PSPHGTRRHLPSPP (SOS1 proline-rich peptide, 1264-1277)  Kd (GRB2 156-215 (Homo sapiens, UniProt P62993); NMR titration; peptide): 400 µM
KLLMIIHDRREFAKFEKEKMNAKWDTQENPIYKSAVTTVVNPKYEGK (ITGB1 752-798 G778Q (Homo sapiens, UniProt P05556-1); sequence looked up)  Kd (Tln1 309-405 (Mus musculus, UniProt P26039); NMR titration): 312 µM
B1 (PUX5 301-421)  Kd (CDC48A; ITC; 25 °C): 3.2 ± 0.4 µM
BRCA1 coiled-coil domain (Homo sapiens)  Kd (PALB2 1-56 (Homo sapiens, UniProt Q86YC2); ITC): 1.4 µM
B2 (CFH domains 1108-1231 L1189F)  Kd (C3 996-1303 (Homo sapiens, UniProt P01024); SPR): 6.3 ± 0.7 µM
B3 (PPARG AF-1 1-136)  Kd (PIN1 (Homo sapiens, UniProt Q13526); NMR): 4.08 µM and 4.44 µM
VEGFA (Homo sapiens, UniProt P15692)  Kd (FLT1 27-758 (Homo sapiens, UniProt P17948); SPR): 0.00018 µM
GCVRLHESCLGQQVPCCDPAATCYCVGRGDDNLKCYCR (designed peptide AgRP scaffold)  Kd (ITGAV/ITGB3 U87MG cells (Homo sapiens); flow cytometry; designed binder, U87MG): 0.0014 µM
B4 (SIL1 20-421)  Kd (HSPA5 28-654 (Homo sapiens, UniProt P11021); MST): 8.4 ± 1.6 µM
B5 (C1S 438-688 S632A)  Kd (SERPING1 111-500 (Homo sapiens, UniProt P05155); SPR; steady-state, together with: Ca2+): 2.7 µM
B6 (DUSP1 3-148)  Kd (MAPK14 2-349 (Homo sapiens, UniProt Q16539); ITC): 0.445 ± 0.067 µM
SCN2A IQ region (Homo sapiens) (sequence not shown)  Kd (CALM1; fluorescence titration; pH 7.4, 22 °C, together with: calcium): 0.0198 µM
B7 (NRP1)  Kd (H2B fragment (Xenopus laevis); SPR): 18.5 µM
KLLITIHDRKEFAKFEEERARAKWDTANNPLYKEATSTFTNITYRGT (ITGB3 742-788 (Homo sapiens, UniProt P05106); sequence looked up)  Kd (Tln1 309-405 (Mus musculus, UniProt P26039); NMR titration): 273 µM
B8  Kd (MAP2K1 (Homo sapiens, UniProt Q02750); BLI): 0.0362 ± 0.00131 µM
ARTKQTARKSTGGKAY (H3C1 1-15; K4me2)  Kd (T1, ATRX ADD domain 167-289 K251R/F284Y (Homo sapiens); ITC; peptide): 66.7 µM
HGEDFSKVSQNPILTSLLQITGNG (MED1 peptide; N-terminal 5-FAM)  Kd (PPARG 202-477 (Homo sapiens, UniProt P37231-2); FP; peptide): 1.43 µM
B9 (Cacna1c 1647-1777)  Kd (Jph2 1-440 S165C (Mus musculus, UniProt Q9ET78); ITC): 6.92 µM
B10 (CFH 1108-1231)  Kd (C3 C3dg 955-1303 (Homo sapiens, UniProt P01024); SPR): 3.8 ± 0.5 µM
LPDTDDRHRIEEKRKRTAETFKSIMKKSPFNGP (Rela 289-321 Y306A (Mus musculus, UniProt Q04207); sequence looked up)  Kd (NFKBIA 67-206 (Homo sapiens, UniProt P25963); ITC; peptide): 2.6 ± 0.04 µM
SCN2A fragment I1912A (Homo sapiens) (sequence not shown)  Kd (CALM1; fluorescence titration; together with: CaCl2): 19.6 µM
ptsH fragment (Escherichia coli) (sequence not shown)  Kd (ptsI fragment (Escherichia coli); NMR titration; with Ficoll-70): 30.5 ± 4.1 µM
histone H3 fragment, N-acetyl/K18 methacrylated/C-terminal amide  Kd (MLLT1 1-148 (Homo sapiens, UniProt Q03111); fluorescence titration): 13 µM
VASP EVH1 domain (Dictyostelium discoideum)  Kd (WASF2 20-residue peptide (Homo sapiens); BLI): > 100 µM
B11 (PUX7 322-468)  Kd (CDC48A; ITC; 10 °C): 2.6 ± 0.3 µM
NEDIDQMFSTLLGEMDLLTQS (RIAM talin-binding site peptide 5-25 (Mus musculus, UniProt Q8R5A3); FITC label; sequence looked up)  Kd (Tln1 1357-1657 (Mus musculus, UniProt P26039); fluorescence polarization; peptide; together with: FITC-labeled peptide 20 nM): 6.6 µM
PVKDEYEFDEDDEQDRVPPVDDKHLLKKDYRKETKSN (ANKRD11 342-378 (Homo sapiens, UniProt Q6UB99); sequence looked up)  Kd (STAG2/RAD21 subcomplex; ITC; peptide): 0.1 ± 0.01 µM
SDEMPNNAKRRRRSQSMIANKRIHQAFQEDEGDEDWEEEEHKPKAKRR (abo1 25-72 (Schizosaccharomyces pombe, UniProt O14114))  Kd (spt16 1-442 (Schizosaccharomyces pombe, UniProt O94267); BLI): 3.7 ± 0.37 µM
B12 (PLXNC1 1198-1305 T1264V/R1265V)  Kd (RND2 1-227 (Homo sapiens, UniProt P52198); SPR): 30.3 ± 9.85 µM
B13 (IGSF10 1941-2229)  Kd (RET 29-635 (Homo sapiens, UniProt P07949); ITC): 0.128 µM
B14 (IgG L:G68W)  Kd (IL13 fragment (Homo sapiens); SPR; antibody): 9e-05 µM

Repeated from above:
ARTKQTARKSTGGKAY (H3C1 1-15; K4me2)  Kd (T1, ATRX ADD domain 167-289 K251R/F284Y (Homo sapiens); ITC; peptide): 66.7 µM
HGEDFSKVSQNPILTSLLQITGNG (MED1 peptide; N-terminal 5-FAM)  Kd (PPARG 202-477 (Homo sapiens, UniProt P37231-2); FP; peptide): 1.43 µM
B9 (Cacna1c 1647-1777)  Kd (Jph2 1-440 S165C (Mus musculus, UniProt Q9ET78); ITC): 6.92 µM
B10 (CFH 1108-1231)  Kd (C3 C3dg 955-1303 (Homo sapiens, UniProt P01024); SPR): 3.8 ± 0.5 µM
